Experimental data from different studies.
Numbered parts are unrelated; each lists some results of a single study.

Sample 1
Target: Interferon regulatory factor 5, full length, phosphomimetic (IRF5, Homo sapiens, UniProt Q13568-2, residues 1-514, S451D/S453D/S456D/S462D)
Method: protein-binding microarray
Form: double-stranded DNA, one strand shown
Medium: in vitro
Tested at: 940 nM top
Notes: 60-bp whole probe
With: salmon DNA 0.4 mg/ml
Reference: random background probes
Direction: higher = stronger binding
Constant ends, left off below: GCCTAGCAC … GTCTTGATTCGCTTGACGCTGCTG
Sequence	fitted relative affinity [z-score]
CTGTGTTTCCTTGTACGTCGGTGCTAG	0.639
AACGGTTTCCTACTGCTGACGTGCTAG	1.03
GACGGTTTCGACACTGGGGGCGTGCTA	9.28
GACGGGCTGCTTCTCCTGACGTGCTAG	-0.505
TTAGGTCTCCGTTTCGGTTAGTGCTAG	3.52

Sample 2
Target: Centromere-binding protein 1, full length, His-tagged (CBF1, Saccharomyces cerevisiae, UniProt P17106, residues 1-351)
Chain of UniProt P17106 (whole entry, looked up): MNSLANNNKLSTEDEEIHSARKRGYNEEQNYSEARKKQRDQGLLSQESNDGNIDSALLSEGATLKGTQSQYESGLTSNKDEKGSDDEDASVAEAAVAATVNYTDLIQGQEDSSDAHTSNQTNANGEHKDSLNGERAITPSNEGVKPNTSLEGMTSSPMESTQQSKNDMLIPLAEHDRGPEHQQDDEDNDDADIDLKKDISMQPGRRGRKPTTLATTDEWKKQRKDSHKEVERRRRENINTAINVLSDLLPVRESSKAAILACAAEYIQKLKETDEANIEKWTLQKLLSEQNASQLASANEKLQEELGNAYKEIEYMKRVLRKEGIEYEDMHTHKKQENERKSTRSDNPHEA
Method: competition protein-binding microarray
Form: double-stranded DNA, one strand shown
Medium: in vitro
Tested at: 2 µM
Notes: whole 60-bp probe, lowest competitor level
With: Pho4 competitor, 0.05 µM
Direction: higher = stronger binding
Sequence	fluorescence intensity [a.u.]
GAGAGGAAGACGCGTTTCGTGGGACTTGGACCACTAGTCTTGATTCGCTTGACGCTGCTG	58.7
CGGGGTTAAGTTTGTGTTGTGGGTGGCTTGCAGCAGGTCTTGATTCGCTTGACGCTGCTG	64.3
CGTCCTAGTGATTGTCACGTGTTTTCCATGAGGAAGGTCTTGATTCGCTTGACGCTGCTG	6550
CGTCCTAGTGATTGTCACACAACTTCCATGAGGAAGGTCTTGATTCGCTTGACGCTGCTG	80.2

Sample 3
Target: Transcription factor Sp1 (SP1, Homo sapiens, UniProt P08047, residues 1-785, full length assumed)
Chain of UniProt P08047 (whole entry, looked up): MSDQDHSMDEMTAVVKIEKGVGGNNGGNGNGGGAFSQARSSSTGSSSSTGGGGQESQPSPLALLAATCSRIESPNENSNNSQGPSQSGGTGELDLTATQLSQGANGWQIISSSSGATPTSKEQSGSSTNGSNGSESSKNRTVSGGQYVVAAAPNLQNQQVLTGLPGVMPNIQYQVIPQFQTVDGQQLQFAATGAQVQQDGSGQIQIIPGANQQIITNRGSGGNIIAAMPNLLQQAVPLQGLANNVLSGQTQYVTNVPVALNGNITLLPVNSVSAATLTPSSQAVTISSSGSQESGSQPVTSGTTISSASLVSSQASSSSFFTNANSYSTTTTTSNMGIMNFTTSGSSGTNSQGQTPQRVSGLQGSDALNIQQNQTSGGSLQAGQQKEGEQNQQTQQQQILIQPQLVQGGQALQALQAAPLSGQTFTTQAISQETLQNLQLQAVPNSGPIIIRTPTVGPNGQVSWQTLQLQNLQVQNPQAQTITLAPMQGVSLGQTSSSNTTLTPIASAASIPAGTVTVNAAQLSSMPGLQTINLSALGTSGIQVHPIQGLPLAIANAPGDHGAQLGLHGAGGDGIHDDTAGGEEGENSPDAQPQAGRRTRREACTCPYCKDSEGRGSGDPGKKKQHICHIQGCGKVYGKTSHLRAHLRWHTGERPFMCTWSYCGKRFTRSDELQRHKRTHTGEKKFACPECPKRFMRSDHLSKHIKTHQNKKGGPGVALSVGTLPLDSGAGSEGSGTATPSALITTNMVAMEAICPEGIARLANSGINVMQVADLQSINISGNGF
Method: protein-binding microarray
Form: double-stranded DNA, one strand shown
Medium: in vitro
Tested at: not given
Notes: k-mer, scored over probes, only values ≥0.25
Direction: higher = stronger binding
Sequence	E-score
CCAAAACC	0.251
CCCCTCTC	0.264
CTGCCCCC	0.251
CCACCCTA	0.388

Other studies, line by line
Molecule	target	assay	system	setting	scale	quantity	result
PhoQ, residues 284 288 289 292 302 303 TYGVAM	PhoP, residues 12 14 15 18 19 AWHSL (Escherichia coli, UniProt P23836)	Sort-seq, item: YFP reporter	E. coli	PhoQ-PhoP variant library, with: 10 µM Mg2+	reference: high Mg2+ state, higher = stronger signaling	fold induction	4.48

Repeated from above (sample 1):
Sequence	fitted relative affinity [z-score]
GACGGGCTGCTTCTCCTGACGTGCTAG	-0.505
TTAGGTCTCCGTTTCGGTTAGTGCTAG	3.52
